Published values pooled from the literature.
Each line is one published result; not all experiments were run side by side. “And” joins repeats or separate records; there may be more than shown.
Target: Serine/threonine-protein kinase NLK (NLK, Homo sapiens, UniProt Q9UBE8)

`NC(=O)[C@@H](O)C[C@H]1CCc2sc3ncnc(O[C@H]4CC[C@H](N5CCOCC5)CC4)c3c21` has an inhibition of 0% (enzyme activity, inhibitor; 10 µM).
For `C=CC(=O)N1CCCC(n2c(=O)c3ncccc3n(Cc3ccc(Oc4ccccc4)cc3)c2=O)C1` (stereo not drawn), the remaining binding was 100% (cell-free assay, competition with immobilised ligand; 1 µM).
Under “activity vs control”, `CNC(=O)C[C@H](Cc1ccc(C#N)cc1)NC(=O)c1cc(-c2ccc(CN[C@H](C)c3ccc(C)cc3)o2)ccc1Cl` is recorded as 100% (enzyme activity, inhibitor; 1 µM).
`COc1c(OCCCN2CCOCC2)ccc2c1N=C(NC(=O)c1cnc(N)nc1)N1CCN=C21` has a remaining activity of 136% (kinase activity, inhibitor; 1 µM; reference: untreated control).
`COc1c(Cl)cccc1Nc1c(-c2ccncc2C#C[C@@]2(C)CCCN2C(=O)/C=C/CN(C)C)[nH]c2c1C(=O)NCC2` has a remaining binding of 4.1% (binding, competition with immobilised ligand; 3 µM).
`O=C=[N][Ru-4]123([n]4c5ccc(O)cc5c5c6c(c7cc(F)c[n+]1c7c54)C(=O)NC6=O)[S+]1CC[S+]2CC[S+]3CC1` (stereo not drawn) gave a remaining activity of 104% (enzyme activity; 100 nM, human enzyme, with: 10 µM ATP; reference: untreated).
`CNC(=O)C1CCN(c2cc(C)c(F)cc2NC(=O)c2ccc(-c3cc(O)ccc3C)c(C)c2)CC1` gave a remaining binding of 100% (binding, competition with immobilised ligand; 1 µM).
`CN1CC[C@@H](COc2cnc(C#N)cc2-c2ccn3nc(NC(=O)C4CC4)cc3c2)C1` has an inhibition of 30% (enzyme activity, inhibitor; 1 µM).
For `Cc1nc2c(F)cc(-c3nc(Nc4ccc(CNC(=O)CCCCCCC(=O)NO)cc4)ncc3F)cc2n1C(C)C`, the inhibition was 68% (enzyme activity, inhibitor; 1 µM).
With `COc1cc(Nc2nccc(-c3cnn4nc(OC)ccc34)n2)cc(C(F)(F)F)c1` the remaining binding was 97% (binding, competition with immobilised ligand; 1 µM).
The remaining binding of `Cc1cnc2nc1Nc1cccc(c1)COC/C=C/COCc1cc(ccc1OCCN1CCOCC1)N2` is reported as 100% (binding; 0.1 µM).
`O=C(Cc1ccc(OCc2ccccc2)cc1)NC1(C(=O)O)CCN(C(=O)c2ccc(-c3cccc(Cl)c3)cc2)CC1` — result for “activity vs control”: 103% (enzyme activity, inhibitor; 10 µM).
`Nc1ncc(-c2cc(-c3cnn(CC(F)(F)F)c3)ncc2F)nc1C(=O)NC1CNCC(F)C1` (stereo not drawn) has a remaining activity of 88.9% (enzyme activity; 1 µM; reference: DMSO control).
`CN1CCN(Cc2ccc(-c3ccc(CO[C@H]4CCC[C@@H]4NC(=O)c4cc(-c5cnn(C)c5)cnc4N)cc3)cc2)CC1` gave an inhibition of 18% (enzyme activity, inhibitor; 0.1 µM).
`COCC12C(=O)NC3C4(C(OC)CC1O)C1CC5(O)C(OC)C(O)C(OC(C)=O)(C1C5OC(=O)c1ccccc1)C3(O)C(OC)C24` (stereo not drawn) has a remaining activity of 101% and 113% (kinase activity, inhibitor, ProQinase kinase profiling; 25 µM; reference: control).

Repeated from above:
`NC(=O)[C@@H](O)C[C@H]1CCc2sc3ncnc(O[C@H]4CC[C@H](N5CCOCC5)CC4)c3c21` has an inhibition of 0% (enzyme activity, inhibitor; 10 µM).
